Experimental data from different studies.
Numbered parts are unrelated; each lists some results of a single study.

Series 1 — method: protein-binding microarray; form: double-stranded DNA, one strand shown; matrix: in vitro; concentration: not given; reading: higher = stronger binding
Target: Protein C-ets-1 (ETS1, Homo sapiens, UniProt P14921, residues 1-441, K379A, full length assumed)
Notes: k-mer, scored over probes, only values ≥0.25
Target sequence (chain): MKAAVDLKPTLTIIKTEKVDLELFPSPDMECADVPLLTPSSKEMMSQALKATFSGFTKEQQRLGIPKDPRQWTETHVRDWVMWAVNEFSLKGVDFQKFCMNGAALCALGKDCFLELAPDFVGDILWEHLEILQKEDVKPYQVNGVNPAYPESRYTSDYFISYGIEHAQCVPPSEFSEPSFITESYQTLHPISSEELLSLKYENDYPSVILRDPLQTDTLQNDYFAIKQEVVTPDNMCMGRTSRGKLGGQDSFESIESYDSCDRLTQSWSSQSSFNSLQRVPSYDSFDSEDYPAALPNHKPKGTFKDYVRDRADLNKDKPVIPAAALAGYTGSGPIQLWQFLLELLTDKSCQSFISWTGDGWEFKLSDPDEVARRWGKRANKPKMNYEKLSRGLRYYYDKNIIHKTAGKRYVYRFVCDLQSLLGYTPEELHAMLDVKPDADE
`CCCGCCCA` gave an E-score of 0.348.
With `CCGGTTTC` the E-score was 0.372.
The E-score of `ACCGCCGG` is reported as 0.345.
`ATATGTAC` has an E-score of 0.283.

Series 2 — method: RNA Bind-n-Seq; form: RNA; matrix: in vitro; concentration: 365 nM; baseline: no-protein control; reading: higher = stronger binding
Target: RNA binding protein fox-1 homolog 2, RRM domain, GST-SBP tag (RBFOX2, Homo sapiens, UniProt O43251-10, residues 100-194)
Notes: natural RNA segment, single round, ends assumed
Residues (chain): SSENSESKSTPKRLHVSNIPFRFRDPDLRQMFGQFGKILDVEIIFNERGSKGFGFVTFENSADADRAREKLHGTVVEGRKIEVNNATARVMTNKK
`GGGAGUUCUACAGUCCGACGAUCAAAAUUCAAAUGCACUUAUGUUCUCAUUCUAUGGCCAUUGUGUUGCCUCUGUUACUGUUUGUAUUGAAUAAAAACAUCUUCAUGUGGGCUGGGGUAGAAACUGGUGUCUGUGGAAUUCUCGGGUGCCAA`: “RBNS enrichment (R)” 0.569.
`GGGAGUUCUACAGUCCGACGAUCUUGUACUGUAACUACCUCAUGGUUUGAAUGAUGAUUGUACUGCUGGUUGUGUUAACAGAGCACAUUUUGUUGGGUGAGUCCUAUGUGAUUUUUUUCAUGUUUGUUUUAUCUGGAAUUCUCGGGUGCCAA`: “RBNS enrichment (R)” 3.29.
For `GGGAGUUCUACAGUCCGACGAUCGCGGUUACGCACAGAGGCAAGCAGCUAGAGUCCGGGAUCCCCAGCCUACUGCCUCUCCAGCACUUCUCUCUUCAAGCGGCGACCCCCUACCCUCCCAGCGAGUUGCGCUGUGGAAUUCUCGGGUGCCAA`, “RBNS enrichment (R)” read 0.516.
`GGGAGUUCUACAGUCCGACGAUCUGGUUUGGGGAGGUCUGUUUGUUACAUAAAAAGGACCUUUCGGUGUAAGAAAUUGCCGUUUUUACCCUGCCCUGGCUGGCAUGUGAGAAGCCAUGGAAGGUUGUGGUUGUUGGAAUUCUCGGGUGCCAA` — result for “RBNS enrichment (R)”: 19.
For `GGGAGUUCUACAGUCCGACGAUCAGAAUCCGCAUGUUUCCCCAGUGAUUACACUCCACUGCCACCGUGGUGCCUGGCUUUAACUCCCACCCCUGCUAUGACUCCUCUCUGCAGAGACGCGACUGGCGGCUCCAUGGAAUUCUCGGGUGCCAA`, “RBNS enrichment (R)” read 4.62.
`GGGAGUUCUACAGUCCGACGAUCACAGAAUGUGUUCUUUGUCCUUUUCCAGCCCUGCUCUUCUCUGGGAAGAUACAGGAGUCUGCCACCUGUCAUAGAAGGGUGCUGCCAACUUGAUGCUCUACCUGCCACCAUGGAAUUCUCGGGUGCCAA` — result for “RBNS enrichment (R)”: 0.403.
`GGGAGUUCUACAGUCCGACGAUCUGGUCACCUCAGUCCAGCUCUGGGGCCUCCAGGCCAUGUGGCUGUUCCCACGGCCCAGUCCUCGCUGCAGUAACCCCUGGGGGCUCUGACCACCUAUGGGGGCCGGGCAGUGGAAUUCUCGGGUGCCAA` — result for “RBNS enrichment (R)”: 0.215.
`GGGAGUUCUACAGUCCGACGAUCAGCUCUCAAGUUCACCCUUUAGGGAAAAGUUAUUUUGUUUACAUUAUUAUAAGGGAUUUGUGAUGUCUGUAAAGUGUAACCUAGGAAAGAUAAUUCAACCAUCUAAUCAAUGGAAUUCUCGGGUGCCAA`: “RBNS enrichment (R)” 0.465.
For `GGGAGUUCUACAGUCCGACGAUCAUACAUCACUUCCUGUUUUAUGCAGCUCAAAAAACAUAGACUGAAGAUUUAUUUUUUAAUAUGUUGACUUUGUUUCUCAGCAAAGCAUUGGUCAUGUGUGUAUUUUUCCAUGGAAUUCUCGGGUGCCAA`, “RBNS enrichment (R)” read 0.283.

Series 3 — method: universal PBM; form: double-stranded DNA, one strand shown; matrix: in vitro; concentration: not given; reading: higher = stronger binding
Target: Sal-like protein 4, full length isoform B (SALL4, Homo sapiens, UniProt Q9UJQ4-2, residues 1-616)
Notes: 8-mer, flanks averaged, mean of replicates
With `CTGTGATA` the E-score was 0.139.
With `AAACGGCT` the E-score was -0.114.
`AGGCTCAC` gave an E-score of -0.246.
For `CACGAGTG`, the E-score was -0.159.
`TAGGCGAA` has an E-score of 0.162.
The E-score of `AGTTGCGC` is reported as -0.156.
For `AAGGTCTG`, the E-score was -0.026.
`GTGCGGGA` has an E-score of -0.165.

Single results of other studies
`PhoQ, residues 284 288 289 292 302 303 SLSVQF` has a fold induction of 8.19 (PhoP, residues 12 14 15 18 19 NMSFL (Escherichia coli, UniProt P23836); Sort-seq, refers to: YFP reporter; E. coli; PhoQ-PhoP variant library, together with: 10 µM Mg2+; baseline: high Mg2+ state, higher = stronger signaling).
